Measurements of several laboratories.
Every numbered part comes from another study and shows a few of its results, in no order.
Chain of UniProt Q59H18 (whole entry, looked up): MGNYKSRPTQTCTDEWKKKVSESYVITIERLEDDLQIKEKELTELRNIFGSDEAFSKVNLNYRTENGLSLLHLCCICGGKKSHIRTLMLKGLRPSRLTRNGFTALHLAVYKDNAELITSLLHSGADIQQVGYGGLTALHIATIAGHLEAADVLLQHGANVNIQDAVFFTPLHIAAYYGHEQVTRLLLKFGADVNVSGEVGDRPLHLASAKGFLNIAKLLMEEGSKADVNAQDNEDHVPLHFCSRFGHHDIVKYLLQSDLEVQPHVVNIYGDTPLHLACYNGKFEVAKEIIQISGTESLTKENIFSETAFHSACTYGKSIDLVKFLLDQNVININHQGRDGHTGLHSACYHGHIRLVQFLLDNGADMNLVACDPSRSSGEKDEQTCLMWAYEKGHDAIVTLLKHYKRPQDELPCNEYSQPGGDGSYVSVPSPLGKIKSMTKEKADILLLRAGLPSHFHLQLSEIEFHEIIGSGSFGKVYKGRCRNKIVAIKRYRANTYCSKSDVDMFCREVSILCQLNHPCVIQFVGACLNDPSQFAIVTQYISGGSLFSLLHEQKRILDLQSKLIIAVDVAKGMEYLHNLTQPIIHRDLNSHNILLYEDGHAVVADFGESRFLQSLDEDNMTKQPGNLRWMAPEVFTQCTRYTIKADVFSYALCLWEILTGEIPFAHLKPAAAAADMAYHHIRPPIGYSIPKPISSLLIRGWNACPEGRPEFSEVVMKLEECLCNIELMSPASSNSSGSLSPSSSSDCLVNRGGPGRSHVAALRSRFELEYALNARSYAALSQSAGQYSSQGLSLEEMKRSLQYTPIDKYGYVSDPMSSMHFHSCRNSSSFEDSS
Chain of UniProt P11802 (whole entry, looked up): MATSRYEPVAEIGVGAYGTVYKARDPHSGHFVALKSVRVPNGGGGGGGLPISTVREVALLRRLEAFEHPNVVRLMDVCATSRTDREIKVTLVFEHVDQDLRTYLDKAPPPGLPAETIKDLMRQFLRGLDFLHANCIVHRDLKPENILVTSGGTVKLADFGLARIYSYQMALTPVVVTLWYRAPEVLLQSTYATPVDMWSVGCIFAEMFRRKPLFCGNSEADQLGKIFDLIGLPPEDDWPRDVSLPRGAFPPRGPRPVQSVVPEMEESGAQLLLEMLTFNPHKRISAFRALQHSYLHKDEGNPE
Chain of UniProt Q13554 (whole entry, looked up): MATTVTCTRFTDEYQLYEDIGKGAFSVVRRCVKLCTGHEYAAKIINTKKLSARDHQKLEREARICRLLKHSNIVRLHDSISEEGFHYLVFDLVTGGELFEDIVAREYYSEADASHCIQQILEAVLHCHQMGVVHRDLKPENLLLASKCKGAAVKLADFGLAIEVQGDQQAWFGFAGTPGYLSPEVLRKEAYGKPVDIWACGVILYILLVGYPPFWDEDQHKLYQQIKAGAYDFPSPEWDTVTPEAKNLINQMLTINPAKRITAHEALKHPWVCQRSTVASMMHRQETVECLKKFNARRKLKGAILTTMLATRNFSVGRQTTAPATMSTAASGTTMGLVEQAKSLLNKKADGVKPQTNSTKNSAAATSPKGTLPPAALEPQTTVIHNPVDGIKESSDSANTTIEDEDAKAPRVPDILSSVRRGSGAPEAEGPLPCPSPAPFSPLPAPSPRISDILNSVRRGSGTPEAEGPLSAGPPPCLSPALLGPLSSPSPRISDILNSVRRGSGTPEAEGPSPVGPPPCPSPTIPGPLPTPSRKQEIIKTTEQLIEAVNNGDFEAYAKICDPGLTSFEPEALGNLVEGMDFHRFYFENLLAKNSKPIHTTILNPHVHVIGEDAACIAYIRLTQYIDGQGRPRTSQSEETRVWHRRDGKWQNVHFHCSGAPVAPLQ
Chain of UniProt Q96J92 (whole entry, looked up): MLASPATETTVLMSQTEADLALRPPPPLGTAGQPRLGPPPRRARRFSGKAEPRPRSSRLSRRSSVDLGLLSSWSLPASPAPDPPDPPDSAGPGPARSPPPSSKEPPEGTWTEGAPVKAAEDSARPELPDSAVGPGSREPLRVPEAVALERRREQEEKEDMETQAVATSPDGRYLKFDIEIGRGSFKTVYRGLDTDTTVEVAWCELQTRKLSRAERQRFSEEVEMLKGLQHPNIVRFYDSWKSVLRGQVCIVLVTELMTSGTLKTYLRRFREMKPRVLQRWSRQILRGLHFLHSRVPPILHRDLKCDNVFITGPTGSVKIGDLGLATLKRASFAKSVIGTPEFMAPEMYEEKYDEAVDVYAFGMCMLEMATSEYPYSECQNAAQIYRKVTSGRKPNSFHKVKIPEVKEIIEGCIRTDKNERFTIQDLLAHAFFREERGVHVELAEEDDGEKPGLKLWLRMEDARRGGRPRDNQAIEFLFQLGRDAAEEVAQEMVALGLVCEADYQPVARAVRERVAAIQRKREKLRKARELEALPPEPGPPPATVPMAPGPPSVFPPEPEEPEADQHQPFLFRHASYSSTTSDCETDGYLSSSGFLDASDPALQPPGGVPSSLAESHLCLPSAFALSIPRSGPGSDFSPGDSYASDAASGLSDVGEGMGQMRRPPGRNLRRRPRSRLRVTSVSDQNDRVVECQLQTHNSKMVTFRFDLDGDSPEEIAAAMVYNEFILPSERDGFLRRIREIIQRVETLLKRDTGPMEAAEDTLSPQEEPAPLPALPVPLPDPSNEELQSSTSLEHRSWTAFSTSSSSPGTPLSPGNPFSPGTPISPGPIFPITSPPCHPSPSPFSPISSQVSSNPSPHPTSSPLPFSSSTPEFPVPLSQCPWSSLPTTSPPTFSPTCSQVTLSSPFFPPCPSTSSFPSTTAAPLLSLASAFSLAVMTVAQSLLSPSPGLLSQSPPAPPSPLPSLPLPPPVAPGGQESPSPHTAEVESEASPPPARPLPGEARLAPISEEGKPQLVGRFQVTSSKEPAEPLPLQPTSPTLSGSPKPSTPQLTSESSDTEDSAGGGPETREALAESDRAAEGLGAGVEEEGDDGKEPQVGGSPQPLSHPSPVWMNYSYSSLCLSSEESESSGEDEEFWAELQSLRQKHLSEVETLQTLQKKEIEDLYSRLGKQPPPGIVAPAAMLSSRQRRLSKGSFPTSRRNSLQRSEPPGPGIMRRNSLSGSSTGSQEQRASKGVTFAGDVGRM
Chain of UniProt P21709 (whole entry, looked up): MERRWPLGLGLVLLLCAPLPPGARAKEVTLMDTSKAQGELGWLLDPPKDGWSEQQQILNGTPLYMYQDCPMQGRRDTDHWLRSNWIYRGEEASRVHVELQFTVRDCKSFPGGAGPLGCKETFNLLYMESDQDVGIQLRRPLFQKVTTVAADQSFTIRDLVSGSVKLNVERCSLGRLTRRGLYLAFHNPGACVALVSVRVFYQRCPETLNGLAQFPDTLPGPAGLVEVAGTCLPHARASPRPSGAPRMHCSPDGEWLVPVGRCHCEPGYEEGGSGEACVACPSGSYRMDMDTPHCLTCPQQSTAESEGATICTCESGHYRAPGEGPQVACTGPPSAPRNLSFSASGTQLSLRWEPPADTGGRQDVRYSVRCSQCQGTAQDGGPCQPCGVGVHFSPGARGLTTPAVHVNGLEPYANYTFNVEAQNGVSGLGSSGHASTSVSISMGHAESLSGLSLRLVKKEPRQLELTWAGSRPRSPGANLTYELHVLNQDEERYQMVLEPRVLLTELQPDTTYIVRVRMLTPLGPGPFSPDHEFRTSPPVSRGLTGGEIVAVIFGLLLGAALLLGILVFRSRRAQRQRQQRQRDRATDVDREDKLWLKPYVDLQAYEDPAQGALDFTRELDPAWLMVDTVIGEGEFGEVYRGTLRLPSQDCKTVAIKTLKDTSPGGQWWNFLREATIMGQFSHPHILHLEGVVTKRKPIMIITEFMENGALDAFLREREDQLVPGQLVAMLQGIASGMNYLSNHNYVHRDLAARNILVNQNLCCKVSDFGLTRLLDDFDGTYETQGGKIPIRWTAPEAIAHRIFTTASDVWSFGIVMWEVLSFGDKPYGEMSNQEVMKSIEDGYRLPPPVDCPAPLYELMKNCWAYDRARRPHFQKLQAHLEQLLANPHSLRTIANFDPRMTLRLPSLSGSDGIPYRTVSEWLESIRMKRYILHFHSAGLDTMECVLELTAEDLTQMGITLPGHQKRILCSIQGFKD
Chain of UniProt Q14012 (whole entry, looked up): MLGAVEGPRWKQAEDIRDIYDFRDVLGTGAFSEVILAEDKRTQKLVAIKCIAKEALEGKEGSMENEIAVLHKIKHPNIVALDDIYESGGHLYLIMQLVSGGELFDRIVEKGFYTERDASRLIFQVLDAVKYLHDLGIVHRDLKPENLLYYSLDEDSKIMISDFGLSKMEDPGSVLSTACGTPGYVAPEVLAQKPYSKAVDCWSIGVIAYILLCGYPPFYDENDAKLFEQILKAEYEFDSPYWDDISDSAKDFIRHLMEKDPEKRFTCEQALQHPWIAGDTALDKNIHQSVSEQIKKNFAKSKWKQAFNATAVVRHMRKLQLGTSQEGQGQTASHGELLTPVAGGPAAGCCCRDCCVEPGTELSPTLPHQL

Series 1
Structure (SMILES): CCOCCn1cc(C(=O)Nc2ccc(-n3nc(-c4cccnc4)cc3C(F)(F)F)cn2)ccc1=O
Method: competition with immobilised ligand
Concentration: 1 µM
Quantity: remaining binding
LYN (Homo sapiens, UniProt P07948); cell-free assay: 81%
CAMK1 (Homo sapiens, UniProt Q14012); cell-free assay: 100%
NEK4 (Homo sapiens, UniProt P51957); cell-free assay: 80%
FLT3 (Homo sapiens, UniProt P36888); cell-free assay: 63%
Tyrosine-protein kinase ABL1, phosphorylated (ABL1, Homo sapiens, UniProt P00519); cell-free assay: 61%
TNNI3K (Homo sapiens, UniProt Q59H18); cell-free assay: 100%
CAMK2B (Homo sapiens, UniProt Q13554); cell-free assay: 90%
EPHA1 (Homo sapiens, UniProt P21709); cell-free assay: 82%
EGFR (Homo sapiens, UniProt P00533, L858R/T790M); cell-free assay: 96%
Cyclin-dependent kinase 4, with cyclin D3 (CDK4, Homo sapiens, UniProt P11802); cell-free assay: 81%
STK38L (Homo sapiens, UniProt Q9Y2H1); cell-free assay: 66%
CDK15 (Homo sapiens, UniProt Q96Q40); cell-free assay: 100%
EPHB2 (Homo sapiens, UniProt P29323); cell-free assay: 61%
SGK2 (Homo sapiens, UniProt Q9HBY8); cell-free assay: 100%
DSTYK (Homo sapiens, UniProt Q6XUX3); cell-free assay: 61%
WEE2 (Homo sapiens, UniProt P0C1S8); cell-free assay: 100%
ROCK2 (Homo sapiens, UniProt O75116); cell-free assay: 88%
Myosin-IIIa (MYO3A, Homo sapiens, UniProt Q8NEV4); binding: 100%
FLT3 (Homo sapiens, UniProt P36888, ITD); cell-free assay: 79%
KDR (Homo sapiens, UniProt P35968); cell-free assay: 81%
CDK11A (Homo sapiens, UniProt Q9UQ88); binding: 100%
FLT3 (Homo sapiens, UniProt P36888, K663Q); cell-free assay: 98%
TEC (Homo sapiens, UniProt P42680); cell-free assay: 100%
VRK2 (Homo sapiens, UniProt Q86Y07); cell-free assay: 97%
WNK4 (Homo sapiens, UniProt Q96J92); cell-free assay: 91%

Series 2
Host: mouse
Matrix: microsomes or S9
Concentration: 2 µM
Time: 0.5 h
Quantity: remaining compound
Cc1ccc(-c2cn3c4c(sc3n2)C(=O)C(C)(C)CC4)cc1: 33.5%
c1ccc2c(c1)ccc1nnc(-c3c[nH]c4ccccc34)n12: 4.33%
COC[C@]1(C)Oc2ccc(N)cc2[C@H](N(Cc2ncc[nH]2)c2ccc(Cl)cc2)[C@H]1O: 26.1%
CNC1=C(c2cc(C)cc(C)n2)C(=O)C(c2ccccc2Cl)O1 (stereo not shown): 0.103%
CC(C)CN(CC(C)C)S(=O)(=O)c1ccc(NC(=O)C(C)C)cc1: < 1%
Brc1cccc(-c2cnc3n2CCCCC3)c1: 0.218%
COC(=O)c1cc(F)c(NCCCN(CCCCN(CCCn2c(=O)[nH]c3cc(F)c(F)cc3c2=O)C(=O)OC(C)(C)C)C(=O)OC(C)(C)C)cc1NC(=O)NCCCN(CCCCN(CCCn1c(=O)[nH]c2cc(F)c(F)cc2c1=O)C(=O)OC(C)(C)C)C(=O)OC(C)(C)C: > 99.9%
CC(NS(C)(=O)=O)c1nnc(N2CC3(CCC3)c3ccccc32)n1C (stereo not shown): 55.3%
Cc1nn2c(N(C)C)cc(Cl)nc2c1Br: 0.118%
CCOC(=O)C1(C(=O)OCC)Cc2ccccc2C(C)(c2ccccc2)C1 (stereo not shown): 10.9%
CCC(C)OC(=O)c1c(NC(=O)C2CCN(S(C)(=O)=O)CC2)sc2c1CCCC2 (stereo not shown): 17.8%

Series 3
Cell line: Huh-7
Concentration: 10 µM
Time: 24 h
Quantity: viability
CCC(=O)OCC(=O)[C@@]1(OC(=O)CC)[C@@H](C)C[C@H]2[C@@H]3CCC4=CC(=O)C=C[C@]4(C)[C@@]3(Cl)[C@@H](O)C[C@@]21C: 101%
CC1COc2c(N3CCN(C)CC3)c(F)cc3c(=O)c(C(=O)O)cn1c23 (stereo not shown): 101%
CC=CC1=C(C(=O)O)N2C(=O)[C@@H](NC(=O)[C@H](N)c3ccc(O)cc3)[C@H]2SC1: 95.8%
COCC1=C(C(=O)OC(C)OC(=O)OC(C)C)N2C(=O)[C@@H](NC(=O)/C(=N\OC)c3csc(N)n3)[C@H]2SC1 (stereo partly shown): 97%
COc1ccccc1OCC(O)CO (stereo not shown): 106%
CCCCCCCCCCCCCCCC(=O)OC[C@@H](NC(=O)C(Cl)Cl)[C@H](O)c1ccc([N+](=O)[O-])cc1: 92%
CS(=O)(=O)OCCCCOS(C)(=O)=O: 78.6%
Clc1ccc(C(c2ccccc2Cl)C(Cl)Cl)cc1 (stereo not shown): 93.9%
CCCc1nc(C(C)(C)O)c(C(=O)OCc2oc(=O)oc2C)n1Cc1ccc(-c2ccccc2-c2nnn[nH]2)cc1: 92.4%
CCOC(=O)c1ncn2c1CN(C)C(=O)c1cc(F)ccc1-2: 97.6%

Series 4
Target: Tyrosine-protein kinase BTK (BTK, Homo sapiens, UniProt Q06187)
Chain of UniProt Q06187 (whole entry, looked up): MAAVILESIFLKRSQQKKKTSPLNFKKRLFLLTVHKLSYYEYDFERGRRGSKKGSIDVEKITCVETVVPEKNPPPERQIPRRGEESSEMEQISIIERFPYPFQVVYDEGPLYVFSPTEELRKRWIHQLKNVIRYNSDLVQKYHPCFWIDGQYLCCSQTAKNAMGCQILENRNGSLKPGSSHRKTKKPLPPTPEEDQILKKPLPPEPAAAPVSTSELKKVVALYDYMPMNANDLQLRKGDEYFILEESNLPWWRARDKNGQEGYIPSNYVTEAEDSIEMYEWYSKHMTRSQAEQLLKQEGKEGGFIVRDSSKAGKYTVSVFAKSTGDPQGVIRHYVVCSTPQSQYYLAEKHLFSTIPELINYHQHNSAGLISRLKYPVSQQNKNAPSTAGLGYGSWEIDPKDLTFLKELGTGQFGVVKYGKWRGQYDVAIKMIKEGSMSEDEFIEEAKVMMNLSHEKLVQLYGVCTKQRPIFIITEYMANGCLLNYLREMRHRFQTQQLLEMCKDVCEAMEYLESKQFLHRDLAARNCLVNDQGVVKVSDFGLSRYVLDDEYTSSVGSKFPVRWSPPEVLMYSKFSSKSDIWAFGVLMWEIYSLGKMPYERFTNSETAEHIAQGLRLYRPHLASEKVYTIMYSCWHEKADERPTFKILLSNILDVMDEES
Read-out: enzyme activity
Mode: inhibitor
Concentration: 0.5 µM
Reference: control
Quantity: remaining activity
Nc1cccc(-c2cc3c(Oc4cccc(O)c4)ncnc3[nH]2)c1: 33.6%
O=C1C(Cl)=C(N2C(=O)CCC2=O)C(=O)c2ccccc21: 103%
O=C(Nc1cccc(Nc2nccc(Nc3cccc(C(F)(F)F)c3)n2)c1)C1CC1: 83.7%
CN(C)C[C@H]1CCn2c(c(C3=C(c4cn(C)c5ccccc45)C(=O)NC3=O)c3ccccc32)C1: 103%
Cc1nc2cc3nc(-c4cccs4)cnc3cc2n1C: 101%
CCN(CC)CCNC(=O)c1c(C)[nH]c(/C=C2\C(=O)Nc3ccc(F)cc32)c1C: 50.2%
Ic1cccc(CSc2nnc(-c3ccncc3)o2)c1: 95.6%
Cc1cc2ncc(-c3ccccc3)nc2cc1C: 94.8%
COc1cc2c(cc1OC)-c1[nH]nc(Nc3cccc(F)c3)c1C2: 40.8%
Cc1cn(-c2cc(NC(=O)c3ccc(C)c(Nc4nccc(-c5cccnc5)n4)c3)cc(C(F)(F)F)c2)cn1: 101%
N#Cc1c(NC(=O)c2cccc3ccccc23)sc2c1CCCC2: 95%
COc1cc2ncnc(Nc3ccc(O)c(Br)c3)c2cc1OC: 85.5%
COc1cc2ncnc(Nc3cccc(Cl)c3)c2cc1OC: 76.7%
CN([C@@H](Cc1ccc(OS(=O)(=O)c2cccc3cnccc23)cc1)C(=O)N1CCN(c2ccccc2)CC1)S(=O)(=O)c1cccc2cnccc12: 97.1%
CCN(CC)CCNC(=O)c1c(C)[nH]c(/C=C2\C(=O)Nc3ccc(Cl)cc32)c1C: 58.3%
c1ccc(-c2[nH]ncc2-c2ccnc3ccccc23)nc1: 104%
c1ccc(-c2cnc(Nc3ccc(OCCN4CCCC4)cc3)s2)cc1: 101%
CCOc1nc(NC(=O)Cc2cc(OC)ccc2OC)cc(N)c1C#N: 92.5%
CCN(CC)C(=O)c1ccc(Nc2nc(OCC3CCCCC3)c3[nH]cnc3n2)cc1: 37.1%
Cn1nc2c3c(cccc31)C(=O)c1ccccc1-2: 89.5%
O=C(NC(NC(=S)Nc1ccc(F)c([N+](=O)[O-])c1)C(Cl)(Cl)Cl)C(c1ccccc1)c1ccccc1 (stereo not shown): 104%
O=c1cc(-c2cccc3c2Sc2ccccc2S3)oc(N2CCOCC2)c1: 104%
N#C/C(=C\c1ccc(O)c(O)c1)C(=O)NCc1ccccc1: 99.8%
O=C1c2ccccc2-c2n[nH]c3cccc1c23: 97.8%
